Published values of several laboratories.
Compare with care: the assays were run in different laboratories. ± gives the spread as reported.
Organism: Plasmodium falciparum

Structure (SMILES) | assay | test system | setting | EC50
Cc1c(Cc2ccc(C(F)(F)F)nc2)c[nH]c1C(=O)N[C@@H](C)CO | parasite growth | 3D7 |  | 2100 nM
COc1cc(C(=O)N(C)C)ccc1-c1cc2nccc(-c3ccc4ccncc4c3)c2o1 | parasite growth, LDH colorimetric | 3D7 Hyp1-Nluc | 72 h | 906 nM
CC(C)(N)COCC(=O)N1CCC[C@H](C(=O)NCc2nc(-c3ccc(C(F)(F)F)cc3)cs2)C1 | SYBR Green growth | asexual blood-stage parasites, 3D7 | 72 h | 8.4 ± 2.4 nM
CCN1CCN(Cc2ccc(Nc3nc4ccc(Oc5ccnc(NC(C)=O)c5)c5c4n3CCC5)cc2C(F)(F)F)CC1 | parasite growth, SYBR Green I | Dd2 | 72 h | > 5000 nM
Cc1c(C2(c3ccc(C(F)(F)F)nc3)CC2)c[nH]c1C(=O)NC(C)c1c[nH]cn1 (stereo not shown) | parasite growth | 3D7 |  | 520 nM
CCn1cc(Cl)c2c(Cc3ccc(N4CCOCC4)nc3)n(C)nc2c1=O | parasite growth | 3D7 |  | 398 nM
COc1ccc(CNc2nc(-c3ccc(C(=O)O)nc3)nc3sc4c(c23)CCCC4)cc1Cl | parasite growth, LDH colorimetric | 3D7 Hyp1-Nluc | 72 h | 1340 nM
CCOCC(=O)N1CCC[C@H](C(=O)NCc2nc(-c3ccc(C)nc3)cs2)C1 | SYBR Green growth | asexual blood-stage parasites, 3D7 | 72 h | 4.3 ± 0.68 nM
CCOCC(=O)N1CCC[C@H](C(=O)NCc2nc(-c3ccccc3)cs2)C1 | SYBR Green | 3D7 | 72 h | 37 ± 3.2 nM
CCn1cc(-c2nc(C)no2)c(=O)c2cc(F)c(N3CCC(C)CC3)cc21 | parasite growth, [3H]hypoxanthine incorporation | 7G8 | 72 h | 10 nM
CCn1cc(C)c2c(Cc3ccc(C(F)(F)F)nc3)n(C)nc2c1=O | parasite growth | 3D7 |  | 39.8 nM
NCCOCC(=O)N1CCC[C@H](C(=O)NCc2nc(-c3ccc(C(F)(F)F)cc3)cs2)C1 | SYBR Green growth | asexual blood-stage parasites, 3D7 | 72 h | 21 ± 5.5 nM
CCn1cc(C2CC2)c2c(CN3CCC4(CCC4)CC3)n(C)nc2c1=O | parasite growth | 3D7 |  | 15.8 nM
Cc1cnc(Nc2ccnc3ccc(-c4ccc(S(=O)(=O)N5CCOCC5)cc4)cc23)s1 | parasite growth, SYBR Green | D6 |  | 100 nM
O=C(NCc1nc(-c2ccccc2)cs1)[C@H]1CCCN(C(=O)COCCF)C1 | SYBR Green growth | asexual blood-stage parasites, 3D7 | 72 h | 25 ± 4.5 nM
COc1ccc(NC(=O)N2CCCCN3[C@H](CO)[C@H](c4ccc(C#Cc5ccccc5)cc4)[C@@H]3C2)cc1 | blood-stage growth inhibition | Dd2 |  | 11 nM
Cc1nnc(-c2ccc3ccn(CC(=O)Nc4ccccc4Cl)c3c2)o1 | cytosolic Na+ increase rate, SBFI fluorescence | 3D7 | isolated trophozoites | ~400 nM
Cc1cc(C(C)NC(=O)c2[nH]cc(Cc3ccc(F)c4ccncc34)c2C)no1 (stereo not shown) | parasite growth | 3D7 |  | 2 to 4 nM
CCn1ccc2c(Cc3ccc(C(F)(F)F)nc3)n(C)nc2c1=O | parasite growth | 3D7 |  | 631 nM
O=S(=O)(c1ccc(-c2ccc3nccc(Nc4nnc(C5CC5)s4)c3c2)cc1)N1CCOCC1 | parasite growth, SYBR Green | TM91C235 |  | 860 nM
CC(=O)Nc1cc(Oc2ccc3nc(Nc4ccc(F)cc4F)n(C)c3c2)ccn1 | parasite growth, SYBR Green I | Dd2 | 72 h | > 5000 nM
COc1cc(OC)c(CCNC(=O)c2cn3cc(-c4cc(OCC(=O)O)ccc4OC)nc3s2)c(OC)c1 | parasite growth, LDH colorimetric | 3D7 Hyp1-Nluc | 72 h | 4530 nM
CCn1cc(-c2nc(C)no2)c(=O)c2cc(F)c(N3CCC(Cc4ccccc4)CC3)cc21 | parasite growth, [3H]hypoxanthine incorporation | 7G8 | 72 h | 2 nM

Structure (SMILES) | assay | test system | setting | EC50
COCC(=O)N1CCC[C@H](C(=O)NCc2nc(-c3ccc(C(F)(F)F)cc3)cs2)C1 | SYBR Green growth | asexual blood-stage parasites, 3D7 | 72 h | 27 ± 6.4 nM
O=S(=O)(c1ccc(-c2ccc3nccc(Nc4cncs4)c3c2)cc1)N1CCOCC1 | parasite growth, SYBR Green | D6 |  | 7000 nM
CCn1cc(C)c2c([C@@H](N)c3ccc(C(F)(F)F)nc3)n(C)nc2c1=O | parasite growth | 3D7 |  | 3980 nM
Cc1nnc(Nc2ccnc3ccc(-c4ccc(S(=O)(=O)N5CCOCC5)cc4)cc23)nc1C | parasite growth, SYBR Green | TM91C235 |  | 680 nM
Cc1ccc(-c2csc(CNC(=O)[C@H]3CCCN(C(=O)COCCF)[C@@H]3C)n2)cn1 (racemic) | SYBR Green growth | asexual blood-stage parasites, 3D7 | 72 h | 2100 ± 900 nM
COCC(=O)N1CCC[C@H](C(=O)NCc2nc(-c3cccnc3)cs2)C1 | SYBR Green | 3D7 | 72 h | 90 ± 15 nM
Cn1nc2c(=O)n(C3CC3)ncc2c1[C@](O)(c1cnc(C(F)(F)F)c(Cl)c1)C1CC1 | parasite growth | 3D7 |  | 15.8 nM
Cc1noc(C)c1Nc1ccnc2ccc(-c3ccc(S(=O)(=O)N4CCOCC4)cc3)cc12 | parasite growth, SYBR Green | W2 |  | > 20000 nM
CC[C@@](N)(c1ccc(C(F)(F)F)c(Cl)c1)c1c2ncn(C3CC3)c(=O)c2nn1C | parasite growth | 3D7 |  | 0.91 nM
O=S(=O)(c1ccc(-c2ccc3nccc(Nc4ncc(Cl)cn4)c3c2)cc1)N1CCOCC1 | parasite growth, SYBR Green | W2 |  | 5500 nM
CC(=O)Nc1cc(Oc2ccc3nc(Nc4ccc(F)cc4F)n(C)c3n2)ccn1 | parasite growth, SYBR Green I | Dd2 | 72 h | > 5000 nM
CNS(=O)(=O)c1ccccc1Nc1nc(Nc2cc(OC)c(OC)cc2C)ncc1Br | parasite growth, LDH colorimetric | 3D7 Hyp1-Nluc | 72 h | 150 nM
CONC(=O)N1CCC[C@H](C(=O)NCc2nc(-c3ccccc3)cs2)C1 | SYBR Green growth | asexual blood-stage parasites, 3D7 | 72 h | 130 ± 36 nM
CCN(c1ccc(C)cc1)c1ccc(NC(=O)CN(C)c2ccccc2N2CCCC2=O)cn1 | male gamete formation | NF54 stage V gametocytes | 48 h | 410 nM
COc1ccc(Nc2ccnc3ccc(-c4ccc(S(=O)(=O)N5CCOCC5)cc4)cc23)cc1Cl | parasite growth, SYBR Green | D6 |  | 110 nM
CCOC(=O)c1cn(CC)c2cc(N3CCC(C)CC3)c(F)cc2c1=O | parasite growth, [3H]hypoxanthine incorporation | NF54 | 72 h | 47 nM
CCN1CCN(Cc2ccc(Nc3nc4cnc(Oc5ccnc(NC(C)=O)c5)nc4n3C)cc2C(F)(F)F)CC1 | parasite growth, SYBR Green I | Dd2 | 72 h | 1400 ± 200 nM
Cc1ccc(N(c2ccc(NC(=O)CN(C)c3ccccc3N3CCCC3=O)cc2)C(C)C)cc1 | female gamete formation | NF54 stage V gametocytes | 48 h | 464 nM
O=S(=O)(c1ccc(-c2ccc3nccc(Nc4cccnc4)c3c2)cc1)N1CCOCC1 | parasite growth, SYBR Green | D6 |  | 490 nM
Cn1nc2c(=O)n(C3CC3)cnc2c1[C@](O)(c1cnc(C(F)(F)F)c(Cl)c1)C(F)(F)F | parasite growth, parasite reduction ratio | 3D7 |  | 0.6 nM
CNC(=O)[C@H](C)NC(=O)c1[nH]cc(Cc2ccc(C(F)(F)F)nc2)c1C | parasite growth | 3D7 |  | 8900 nM
COCC(=O)N1CCC[C@H](C(=O)NCc2nc(-c3ccc(-c4ccccn4)cc3)cs2)C1 | SYBR Green growth | asexual blood-stage parasites, 3D7 | 72 h | 27 ± 5 nM
COCC(=O)N1CCC[C@H](C(=O)NCc2nc(-c3ccc(OC)cc3)cs2)C1 | SYBR Green | 3D7 | 72 h | 31 ± 5 nM

A few entries again:
Structure (SMILES) | assay | test system | setting | EC50
COCC(=O)N1CCC[C@H](C(=O)NCc2nc(-c3ccc(C(F)(F)F)cc3)cs2)C1 | SYBR Green growth | asexual blood-stage parasites, 3D7 | 72 h | 27 ± 6.4 nM
CCOCC(=O)N1CCC[C@H](C(=O)NCc2nc(-c3ccccc3)cs2)C1 | SYBR Green | 3D7 | 72 h | 37 ± 3.2 nM
COc1cc(OC)c(CCNC(=O)c2cn3cc(-c4cc(OCC(=O)O)ccc4OC)nc3s2)c(OC)c1 | parasite growth, LDH colorimetric | 3D7 Hyp1-Nluc | 72 h | 4530 nM
